Experimental data collected from several papers.
Every numbered part comes from another study and shows a few of its results, in no order.

Sample 1 — method: protein-binding microarray; form: double-stranded DNA, one strand shown; sample: in vitro; concentration: 2200 nM top; setting: 60-bp whole probe; with: salmon DNA 0.4 mg/ml; relative to: random background probes; reading: higher = stronger binding; shared flanks, not repeated: GCCTAGCAC … GTCTTGATTCGCTTGACGCTGCTG
Target: Interferon regulatory factor 7, full length, phosphomimetic (IRF7, Homo sapiens, UniProt Q92985, residues 1-503, S471D/S472D/S475D/S476D/S477D/S483D/S484D/S487D)
Chain of UniProt Q92985 (whole entry, unmodified, looked up): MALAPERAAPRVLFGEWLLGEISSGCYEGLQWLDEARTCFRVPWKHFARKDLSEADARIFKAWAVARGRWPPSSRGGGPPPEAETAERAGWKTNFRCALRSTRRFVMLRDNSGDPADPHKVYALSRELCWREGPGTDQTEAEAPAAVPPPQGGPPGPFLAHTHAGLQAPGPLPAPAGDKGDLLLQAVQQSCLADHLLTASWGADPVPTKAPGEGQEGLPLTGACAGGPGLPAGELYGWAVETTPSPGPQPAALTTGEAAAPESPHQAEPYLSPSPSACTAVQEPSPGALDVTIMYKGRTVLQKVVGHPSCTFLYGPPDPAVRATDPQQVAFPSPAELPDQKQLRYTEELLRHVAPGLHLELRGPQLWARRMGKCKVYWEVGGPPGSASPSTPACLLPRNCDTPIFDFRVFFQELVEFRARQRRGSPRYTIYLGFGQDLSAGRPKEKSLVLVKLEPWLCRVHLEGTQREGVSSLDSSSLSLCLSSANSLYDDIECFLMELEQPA
Sequence | fitted relative affinity [z-score]
TCATTTCTCTGCTCTTTTACTGTGCTA | 2.69
TTAGTTATCGGTTTCGGTTAGTGCTAG | 7.94
TTAGATGTCGGGTTTCGATTAGTGCTA | 2.5
GACGGAGTGGGTATCGGGACGTGCTAG | -0.572
TTAGATATGAGACTGGATTAGTGCTAG | -0.588
TCAAAGATTGCCGTTTCCACTGTGCTA | 0.502

Sample 2 — method: protein binding microarray; form: double-stranded DNA, one strand shown; sample: in vitro; concentration: not given; relative to: not given; reading: higher = stronger binding
Target: Histone acetyltransferase KAT6A, winged helix 1, GST fusion (KAT6A, Homo sapiens, UniProt Q92794, residues 1-85)
Setting: 8-mer, flanks averaged, mean of 2 arrays, mostly near background
Construct (chain): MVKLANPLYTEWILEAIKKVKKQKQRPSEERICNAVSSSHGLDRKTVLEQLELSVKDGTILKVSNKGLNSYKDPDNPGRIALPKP
Sequence | E-score
GAAGTTGA | -0.212
ATTCGGGG | 0.113
GGAGAGAA | -0.159

Single results of other studies
PABPC1L2 full length, GST fusion: PABPC1L2, full length, GST fusion (mouse, UniProt A0ABA7IW68)
Substance | target | test | system | setting | scale | quantity | result
UUACGGG | PABPC1L2 full length, GST fusion | RNAcompete | RNA, in vitro | 20 nM, 7-mer, probes averaged, single round | relative to: mean of 7-mers, higher = stronger binding | 7-mer Z-score | 0.0551
PhoQ, residues 284 288 289 292 302 303 SIHLQL | PhoP, residues 12 14 15 18 19 IFFTR (Escherichia coli, UniProt P23836) | Sort-seq, item: YFP reporter | E. coli | PhoQ-PhoP variant library, with: 10 µM Mg2+ | relative to: high Mg2+ state, higher = stronger signaling | fold induction | 2.02
AAGGAUG | PABPC1L2 full length, GST fusion | RNAcompete | RNA, in vitro | 20 nM, 7-mer, probes averaged, single round | relative to: mean of 7-mers, higher = stronger binding | 7-mer Z-score | 0.314

A few entries again (sample 1):
Sequence | fitted relative affinity [z-score]
TTAGTTATCGGTTTCGGTTAGTGCTAG | 7.94
